Experimental data gathered from unrelated publications.
Numbers after ± are the reported error.
indolicidin: indolicidin (Bos taurus, UniProt P33046)
Chain of UniProt P33046 (whole entry, looked up): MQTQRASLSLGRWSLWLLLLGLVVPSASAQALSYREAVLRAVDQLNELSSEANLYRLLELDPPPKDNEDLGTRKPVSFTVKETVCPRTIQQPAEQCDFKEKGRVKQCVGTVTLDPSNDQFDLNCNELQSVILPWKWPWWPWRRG
PCSK9: PCSK9 fragment (Homo sapiens)
Chain of UniProt O60656 (whole entry, looked up): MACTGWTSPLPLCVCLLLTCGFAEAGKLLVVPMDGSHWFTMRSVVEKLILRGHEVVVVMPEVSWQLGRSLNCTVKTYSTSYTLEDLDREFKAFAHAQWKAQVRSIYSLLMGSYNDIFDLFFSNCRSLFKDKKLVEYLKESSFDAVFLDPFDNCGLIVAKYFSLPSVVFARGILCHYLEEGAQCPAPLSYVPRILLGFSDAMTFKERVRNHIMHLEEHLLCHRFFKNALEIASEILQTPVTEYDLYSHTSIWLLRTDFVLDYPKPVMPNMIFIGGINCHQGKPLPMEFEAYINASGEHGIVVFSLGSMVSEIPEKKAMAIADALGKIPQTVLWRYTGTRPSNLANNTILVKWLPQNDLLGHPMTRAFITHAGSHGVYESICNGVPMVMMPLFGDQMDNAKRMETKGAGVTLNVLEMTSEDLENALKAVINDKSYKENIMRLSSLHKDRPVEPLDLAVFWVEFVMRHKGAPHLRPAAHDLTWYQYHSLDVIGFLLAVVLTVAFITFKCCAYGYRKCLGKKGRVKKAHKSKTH
Chain of UniProt Q8TCS8 (whole entry, unmodified, looked up): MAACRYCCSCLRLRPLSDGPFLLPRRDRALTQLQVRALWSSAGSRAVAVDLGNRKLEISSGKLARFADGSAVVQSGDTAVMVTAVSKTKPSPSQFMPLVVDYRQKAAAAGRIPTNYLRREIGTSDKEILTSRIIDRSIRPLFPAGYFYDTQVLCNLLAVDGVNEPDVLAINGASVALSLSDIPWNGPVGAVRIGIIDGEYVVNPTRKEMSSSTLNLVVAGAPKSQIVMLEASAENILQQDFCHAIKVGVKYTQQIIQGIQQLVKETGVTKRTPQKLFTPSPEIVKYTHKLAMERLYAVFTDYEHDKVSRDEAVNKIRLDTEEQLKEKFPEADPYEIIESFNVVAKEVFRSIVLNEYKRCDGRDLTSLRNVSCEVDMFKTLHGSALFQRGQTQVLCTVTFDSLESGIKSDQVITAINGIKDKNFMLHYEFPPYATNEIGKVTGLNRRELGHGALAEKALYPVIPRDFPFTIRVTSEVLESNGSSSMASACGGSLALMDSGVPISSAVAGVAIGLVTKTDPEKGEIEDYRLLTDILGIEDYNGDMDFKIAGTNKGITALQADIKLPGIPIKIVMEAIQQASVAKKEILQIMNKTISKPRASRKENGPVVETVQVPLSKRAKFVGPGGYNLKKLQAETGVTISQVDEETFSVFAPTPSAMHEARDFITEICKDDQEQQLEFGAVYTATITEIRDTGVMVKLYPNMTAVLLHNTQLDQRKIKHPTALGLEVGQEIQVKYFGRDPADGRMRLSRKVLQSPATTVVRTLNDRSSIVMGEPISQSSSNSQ
Chain of UniProt Q13308 (whole entry, looked up): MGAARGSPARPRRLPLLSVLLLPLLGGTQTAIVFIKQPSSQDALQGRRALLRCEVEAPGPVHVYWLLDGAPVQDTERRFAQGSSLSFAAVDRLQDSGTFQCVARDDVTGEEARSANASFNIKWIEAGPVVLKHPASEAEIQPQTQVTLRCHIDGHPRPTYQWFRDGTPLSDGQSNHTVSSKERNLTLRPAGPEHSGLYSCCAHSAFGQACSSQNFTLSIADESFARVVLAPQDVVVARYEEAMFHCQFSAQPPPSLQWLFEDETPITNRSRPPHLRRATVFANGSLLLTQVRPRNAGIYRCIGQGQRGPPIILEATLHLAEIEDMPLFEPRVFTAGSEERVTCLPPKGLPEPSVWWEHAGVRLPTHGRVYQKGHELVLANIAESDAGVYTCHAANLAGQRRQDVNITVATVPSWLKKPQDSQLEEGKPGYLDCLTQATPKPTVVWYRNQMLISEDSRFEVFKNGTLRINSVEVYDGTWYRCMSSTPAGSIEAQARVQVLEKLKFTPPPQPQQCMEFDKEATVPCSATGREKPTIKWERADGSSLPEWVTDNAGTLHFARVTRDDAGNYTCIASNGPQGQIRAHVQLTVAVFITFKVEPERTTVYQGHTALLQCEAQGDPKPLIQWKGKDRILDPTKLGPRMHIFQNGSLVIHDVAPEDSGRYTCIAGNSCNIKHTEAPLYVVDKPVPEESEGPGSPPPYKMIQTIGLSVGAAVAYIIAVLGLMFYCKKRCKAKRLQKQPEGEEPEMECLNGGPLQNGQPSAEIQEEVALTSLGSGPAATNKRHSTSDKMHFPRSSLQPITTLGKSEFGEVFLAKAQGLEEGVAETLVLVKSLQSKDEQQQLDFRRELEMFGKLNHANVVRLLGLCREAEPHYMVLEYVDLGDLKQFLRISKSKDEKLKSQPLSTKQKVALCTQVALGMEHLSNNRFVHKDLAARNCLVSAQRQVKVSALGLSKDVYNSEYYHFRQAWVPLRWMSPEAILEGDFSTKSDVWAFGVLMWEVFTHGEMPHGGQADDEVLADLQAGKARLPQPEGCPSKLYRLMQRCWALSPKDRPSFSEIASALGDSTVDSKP
Chain of UniProt P16422 (whole entry, looked up): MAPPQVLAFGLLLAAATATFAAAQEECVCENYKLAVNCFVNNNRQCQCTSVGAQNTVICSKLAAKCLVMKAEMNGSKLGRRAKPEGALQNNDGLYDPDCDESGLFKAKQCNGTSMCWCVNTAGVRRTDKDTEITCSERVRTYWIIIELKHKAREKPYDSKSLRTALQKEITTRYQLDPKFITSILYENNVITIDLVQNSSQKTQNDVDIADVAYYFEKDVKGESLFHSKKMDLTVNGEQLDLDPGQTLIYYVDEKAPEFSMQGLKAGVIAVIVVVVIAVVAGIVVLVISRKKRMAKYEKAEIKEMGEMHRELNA
Chain of UniProt P16455 (whole entry, unmodified, looked up): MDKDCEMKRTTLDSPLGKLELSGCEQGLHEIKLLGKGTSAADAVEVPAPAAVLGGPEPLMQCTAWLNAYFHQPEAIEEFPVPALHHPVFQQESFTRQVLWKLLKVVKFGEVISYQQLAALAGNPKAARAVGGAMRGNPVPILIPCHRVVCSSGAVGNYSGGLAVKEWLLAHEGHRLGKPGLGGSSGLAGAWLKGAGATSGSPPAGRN
Chain of UniProt Q15717 (whole entry, looked up): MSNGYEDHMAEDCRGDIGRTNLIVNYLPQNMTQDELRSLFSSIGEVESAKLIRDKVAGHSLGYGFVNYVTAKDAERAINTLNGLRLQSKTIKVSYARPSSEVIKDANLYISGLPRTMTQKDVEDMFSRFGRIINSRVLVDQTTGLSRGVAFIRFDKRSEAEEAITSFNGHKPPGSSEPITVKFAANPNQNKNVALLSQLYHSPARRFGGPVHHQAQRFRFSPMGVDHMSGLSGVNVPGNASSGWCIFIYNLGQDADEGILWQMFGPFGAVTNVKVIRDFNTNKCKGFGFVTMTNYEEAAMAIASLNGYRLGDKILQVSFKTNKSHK
Chain of UniProt P19525 (whole entry, looked up): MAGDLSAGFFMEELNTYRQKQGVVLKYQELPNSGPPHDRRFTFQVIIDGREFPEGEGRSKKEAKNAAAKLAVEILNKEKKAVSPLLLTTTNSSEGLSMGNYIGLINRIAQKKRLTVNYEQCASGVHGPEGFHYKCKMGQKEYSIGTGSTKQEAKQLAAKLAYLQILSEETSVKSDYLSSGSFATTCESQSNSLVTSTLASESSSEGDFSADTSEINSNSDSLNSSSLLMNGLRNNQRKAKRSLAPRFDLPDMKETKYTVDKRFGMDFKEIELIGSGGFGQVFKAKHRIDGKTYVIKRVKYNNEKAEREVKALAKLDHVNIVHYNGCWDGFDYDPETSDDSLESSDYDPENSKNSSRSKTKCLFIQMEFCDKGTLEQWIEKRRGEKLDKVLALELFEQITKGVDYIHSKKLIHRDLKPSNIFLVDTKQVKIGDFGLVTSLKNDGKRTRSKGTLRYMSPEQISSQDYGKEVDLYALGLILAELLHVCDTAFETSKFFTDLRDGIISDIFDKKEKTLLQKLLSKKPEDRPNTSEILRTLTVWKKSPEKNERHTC
Chain of UniProt Q8MQJ9 (whole entry, looked up): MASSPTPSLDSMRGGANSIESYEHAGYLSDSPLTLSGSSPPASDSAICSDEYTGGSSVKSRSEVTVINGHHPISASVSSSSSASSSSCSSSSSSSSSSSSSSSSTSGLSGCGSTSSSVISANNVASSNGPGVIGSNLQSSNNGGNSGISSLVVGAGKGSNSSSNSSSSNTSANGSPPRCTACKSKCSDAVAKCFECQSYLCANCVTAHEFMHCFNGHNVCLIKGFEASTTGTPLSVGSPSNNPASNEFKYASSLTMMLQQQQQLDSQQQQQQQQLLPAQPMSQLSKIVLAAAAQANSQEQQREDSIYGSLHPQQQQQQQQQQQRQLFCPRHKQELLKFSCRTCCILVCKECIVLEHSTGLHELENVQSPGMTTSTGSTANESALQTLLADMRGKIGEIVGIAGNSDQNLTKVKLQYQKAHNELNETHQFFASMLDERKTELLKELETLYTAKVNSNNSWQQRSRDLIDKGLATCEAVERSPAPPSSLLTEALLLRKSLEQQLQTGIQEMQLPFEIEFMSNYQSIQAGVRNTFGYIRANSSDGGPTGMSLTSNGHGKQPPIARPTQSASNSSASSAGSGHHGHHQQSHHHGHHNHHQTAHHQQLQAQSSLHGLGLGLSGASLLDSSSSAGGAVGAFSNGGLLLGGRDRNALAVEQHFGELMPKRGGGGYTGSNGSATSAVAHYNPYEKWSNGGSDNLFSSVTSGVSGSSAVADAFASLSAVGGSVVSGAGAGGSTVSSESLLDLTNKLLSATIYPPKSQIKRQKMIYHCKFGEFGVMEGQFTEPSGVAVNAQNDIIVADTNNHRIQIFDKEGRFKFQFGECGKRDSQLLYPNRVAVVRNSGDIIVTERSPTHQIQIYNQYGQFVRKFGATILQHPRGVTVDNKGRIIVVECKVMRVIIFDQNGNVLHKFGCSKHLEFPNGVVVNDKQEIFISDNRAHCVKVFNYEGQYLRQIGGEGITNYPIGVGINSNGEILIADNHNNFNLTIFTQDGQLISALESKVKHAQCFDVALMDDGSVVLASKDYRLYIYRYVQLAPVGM

GAGCGUAUCCGCUCUUUUUUUUUUUUUUUUUUUUUU (structured RNA; hairpin, 3' U20 tail)  Kd (PNPT1 46-783 D713Y/S484A (Homo sapiens, UniProt Q8TCS8); fluorescence polarization; Mg2+ 2 mM): 581 ± 82 nM
GGGTCATTTGGCGCCTTTCGATCC (dsDNA; blunt, O6-methylguanine)  Kd (MGMT 1-201 (Homo sapiens, UniProt P16455); EMSA; double-stranded DNA, one strand shown; 20 °C, monomer-equivalent): 8200 ± 1100 nM
DNA 1 TTCAGGTCAGAAGGGTTCTATCTCTGTTGGCCAGAATGTCCCTTTTATTACTGGTCGTGT / DNA 2 ACACGACCAGTAATAAAAGGGACATTCTGG (dsDNA; primer-template, 5' overhang, 5' amino C6 dT)  Kd (RFC1/RFC2/RFC3/RFC4/RFC5 RFC1 284-861 (Saccharomyces cerevisiae); fluorescence anisotropy; double-stranded DNA; with maltose, together with: ATPgS 0.5 mM): 200 ± 31 nM
UGT1A9 (Homo sapiens, UniProt O60656)  Vmax (COc1ccc(-c2oc3ccccc3c(=O)c2O)cc1; steady-state kinetics; pH 7.4, 37 °C): 0.0019 µmol/min/mg
CGGTGTGGTCGCTGTAATCAGAATTTTUUCUGAUUACAGCGACCACACCG (DNA:RNA chimera; hairpin, DNA 1-27, RNA 28-50)  Kd (S9.6 scFv (Mus musculus); SPR): 0.47 ± 0.08 nM
CGCGCGCCGCACGUAUCCCUUUUCGCGUCGGCGCGCG (chimeric DNA/RNA; 2'-F C/U in RNA core, 5-methyl-dC, 20 kDa PEG)  Kd (EPCAM 24-314 (Homo sapiens, UniProt P16422); flow cytometry; HT29; not purified): 51.8 nM
GAGUUGAGUUGAGUUGAGUUGAGUUGAGUUGAGUUGAGUUGAGUUGAGUUGAGUU (ssRNA; single strand)  Kd (mtrB full length assumed T30I (Bacillus subtilis, UniProt P19466); filter binding; together with: no tryptophan): 177 ± 20 nM
AATTACATTGATAGAATTATTAGTTTTCUAAUAAUUCUAUCAAUGUAAUU (DNA:RNA chimera; hairpin, DNA 1-27, RNA 28-50)  Kd (S9.6 scFv (Mus musculus); SPR): 0.6 ± 0.1 nM
GGACGGAUUUAAUCGCCGUAGAAAAGCAUGUCAAAGCCGGAACCGUCCCGACGACGACGACGACGACGA / TCGTCGTCGTCGTCGTCGTCG (RNA/DNA hybrid; 2'-F-C, 2'-F-U RNA, 21-nt DNA anti-tail)  Kd (EGFR fragment (Homo sapiens); flow cytometry; HeLa; apparent, live cells, not purified): 19 ± 4 nM
CATATATATCCCCATATATATG (DNA hairpin; hairpin, 9 bp stem, CCCC loop)  Kd (indolicidin; SPR): 39800 nM
GGGGAAUCAAAAAUUUAUUUUUUACACGGAAACGAUGCCACAGUUGACUGAACCUGUCUUCUAACAGUAGUUAAUUGCCAGUAUUUCAAACAAGAUUUGAAAUACGAGUUUCCCAGAAUAAUUUAUUUGGACAGGAUAGGAAGUCCGAUUUCUGUGUUGUCUCAAACGAGGCGAUAGAAUUGGGAUGUCGAAGAAAGUCUACAUUAGAAUUCGAGCU (structured RNA (Saccharomyces cerevisiae); two hairpins)  Kd (CBF5/NOP10/GAR1 (Saccharomyces cerevisiae); filter binding): 0.3 ± 0.1 nM
CGATGTCATCG (dsDNA; blunt, O6-dG interstrand cross-link, 4-carbon)  Kd (MGMT full length assumed C145S (Homo sapiens, UniProt P16455); EMSA; double-stranded DNA, one strand shown; monomeric Kd): 9870 ± 1220 nM
ATUTCATTT (ssDNA; U3-A6 triazole cross-link, internal)  Kd (APOBEC3A E72A (Homo sapiens, UniProt P31941); ITC): 30 ± 6 nM
CGTGTCAGACTTTTGUCUGACACG (DNA-RNA chimera hairpin; hairpin, nt 1-14 DNA, 15-24 RNA, T4 loop)  Kd (S9.6 scFv (Mus musculus); SPR): 0.5 ± 0.06 nM
CGAATCAGATTGGACCAGCCACGTTACTGATTCTTCTACCGTTTTTGCCCCCGGCACCTTCTGGAGTCCAGATGTAGGTAG (XNA; 8 side-chain-functionalized building blocks)  Kd (PCSK9; SPR): 98 nM
TGGGGAGGGTGGGGAGGGTGGGGAAGG (G-quadruplex DNA (Homo sapiens); parallel)  Kd (BG4 scFv; SPRi; K+ 100 mM): 166 nM
ATACCAGCTTATTCAATTAGTCACACTTAGAGTTCTAACTGCTGCGCCGCCGGGAAAATACTGTACGGTTAGATAGTAAGTGCAATCT (ssDNA; 5' amino linker, HPG conjugate)  Kd (PTK7 31-1070 (Homo sapiens, UniProt Q13308); radioligand saturation binding; MDA-MB-468; 37 °C, not purified): 4.02 ± 0.7 nM
CUGUGUUUGUAUGUCUUGAAAAGAAUGUCAGUUAUUUAUUGAAAGUCGUCUUUCAUAUUGUAUGGUCAACACGCACGUGUUGACGCUUCCCUUGGACAUUUUGUGUCUAGUUGGUAGGGCAUAAUGCCCUUUUACAUUCUUUAACCCUGUUUCUCCUGGUCUCGUCUCGCUCGGGACAGAGACGUUCAAAGGACUGUUACAAAUGAAGUAAAAAUAAAAG (ssRNA (Mus musculus))  Kd (Traf3ip2 fragment (Mus musculus); EMSA): 50.2 ± 7.8 nM
GGGAGAGGCAAGUCGUUCGGUCGCGUUCGCUGUCGUCGCGUCUUGUAUGCCACUGUACCC / GGGTACAGTGGCATACAAGACGCGACGACAGCGAACGCGACCGAACGACTTGCCTCTCCC (chimeric DNA/RNA duplex; blunt, strand 2 RNA 23-38)  Kd (EIF2AK2 1-184 (Homo sapiens, UniProt P19525); ITC; 20 °C, strong site, two-site fit): 30 ± 20 nM
CCGCCTCCGGGAGAGCTG (dsDNA; blunt)  Kd (NR3C1 417-506 A458T (Homo sapiens, UniProt P04150); fluorescence polarization; double-stranded DNA, one strand shown; one-site fit): 1100 ± 80 nM
TGCTACCGTTGTTTACCCTGCCACCTTCTGGAGTCCAGATGTAGGTAG (XNA; side-chain nucleotides, 3' inverted dT)  Kd (PCSK9; SPR): 6.8 nM
ATCCAGAGTGACGCAGCAACAGAGGTGTAGAAGTACACGTGAACAAGCTTGAAATTGTCTCTGACAGAGGTGGACACGGTGGCTTAGT (DNA; intramolecular fold)  Kd (CD8A fragment (Homo sapiens); flow cytometry; CD8+ T cells; apparent, not purified): 1.9 ± 0.8 nM
CGTGTGTGTCCCCACACACACG (DNA hairpin; hairpin, 9 bp stem, CCCC loop)  Kd (indolicidin; SPR): 192000 nM
AACAGAGGGACAAACGGGGGAAGATTTGACGTCGACGACA (ssDNA; two hairpins)  Kd (EPCAM residues 24-314 (Homo sapiens, UniProt P16422); flow cytometry; HepG2; not purified): 5480 ± 840 nM
GGGAGACCUAGCCUCAUAUAAUCGUUGUCCAGAAUUGUAUAUAUUCGUAGCAUAAGUUUUCCAAACAUUAUUUUGUUGUCGAAAAUUGUACAUAAGCCAAUUAAGCCGCUAAUUCU (ssRNA)  Kd (brat 756-1037 (Drosophila melanogaster, UniProt Q8MQJ9); EMSA; with tRNA, heparin): 100 nM
GGGAAGGGUUUAAACAGUUUGAAAUAUUCUGUCUUCAUUUCUGUAAUAGUUAAUAUCUGGCUGUCCUUUUUAUAAUGCAAAGUGAGAACUUUCCCUACUGUGUUUGAUAAAUGUUGUCCAGGUUCACUUGCCAAGAAUGUGUUGUCUAAAAUG (ssRNA)  Kd (ELAVL1 full length assumed (Homo sapiens, UniProt Q15717); SPR): 132 nM

For quick reference, copied from above:
ATACCAGCTTATTCAATTAGTCACACTTAGAGTTCTAACTGCTGCGCCGCCGGGAAAATACTGTACGGTTAGATAGTAAGTGCAATCT (ssDNA; 5' amino linker, HPG conjugate)  Kd (PTK7 31-1070 (Homo sapiens, UniProt Q13308); radioligand saturation binding; MDA-MB-468; 37 °C, not purified): 4.02 ± 0.7 nM
CUGUGUUUGUAUGUCUUGAAAAGAAUGUCAGUUAUUUAUUGAAAGUCGUCUUUCAUAUUGUAUGGUCAACACGCACGUGUUGACGCUUCCCUUGGACAUUUUGUGUCUAGUUGGUAGGGCAUAAUGCCCUUUUACAUUCUUUAACCCUGUUUCUCCUGGUCUCGUCUCGCUCGGGACAGAGACGUUCAAAGGACUGUUACAAAUGAAGUAAAAAUAAAAG (ssRNA (Mus musculus))  Kd (Traf3ip2 fragment (Mus musculus); EMSA): 50.2 ± 7.8 nM
